Measured values from different studies.
Numbered parts are unrelated; each lists some results of a single study. Substitutions count along the parent as printed.

Series 1
Target: Transcriptional repressor CTCF (CTCF, Homo sapiens, UniProt P49711, residues 1-727, full length assumed)
UniProt P49711, sequence (whole entry, looked up): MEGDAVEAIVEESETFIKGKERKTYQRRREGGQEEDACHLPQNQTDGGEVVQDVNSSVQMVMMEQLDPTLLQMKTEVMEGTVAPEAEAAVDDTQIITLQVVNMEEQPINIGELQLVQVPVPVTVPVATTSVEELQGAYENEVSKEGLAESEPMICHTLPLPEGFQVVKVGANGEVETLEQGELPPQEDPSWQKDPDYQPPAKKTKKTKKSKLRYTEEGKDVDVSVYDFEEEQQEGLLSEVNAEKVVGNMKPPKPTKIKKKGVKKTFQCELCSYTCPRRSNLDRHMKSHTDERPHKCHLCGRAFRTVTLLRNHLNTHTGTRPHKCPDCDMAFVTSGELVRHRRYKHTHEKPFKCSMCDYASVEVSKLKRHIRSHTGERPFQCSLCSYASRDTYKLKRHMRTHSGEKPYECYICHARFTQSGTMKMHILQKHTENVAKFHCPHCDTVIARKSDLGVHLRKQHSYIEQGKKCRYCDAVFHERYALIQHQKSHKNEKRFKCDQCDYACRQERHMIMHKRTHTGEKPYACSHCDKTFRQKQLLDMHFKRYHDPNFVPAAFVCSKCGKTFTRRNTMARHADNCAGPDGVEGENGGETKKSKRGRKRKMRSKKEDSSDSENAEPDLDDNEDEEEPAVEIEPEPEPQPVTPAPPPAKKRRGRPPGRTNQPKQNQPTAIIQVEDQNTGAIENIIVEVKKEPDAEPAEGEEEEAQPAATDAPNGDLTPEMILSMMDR
Method: protein-binding microarray
Form: double-stranded DNA, one strand shown
Matrix: in vitro
Concentration: not given
Notes: k-mer, scored over probes, only values ≥0.25
Direction: higher = stronger binding
Oligonucleotide | E-score
ACACGTAT | 0.267
GTATTTAA | 0.283
AAAAAGCT | 0.327
AAAAATGT | 0.318
ATTTATAC | 0.352
ACGATAAC | 0.319
AATAACGA | 0.274
CTTTAATA | 0.268
ACGTTTGA | 0.285
ATCATTTA | 0.287
ATTAAACG | 0.285
TTACATAA | 0.304
GTTTTGTA | 0.3
TAAACGTA | 0.297
CTTATAAA | 0.251
CTTCATTA | 0.284
ATGCGCTA | 0.328

Series 2
Target: Histone acetyltransferase KAT6A, both winged helices, GST fusion (KAT6A, Homo sapiens, UniProt Q92794, residues 1-181)
Method: protein binding microarray
Form: double-stranded DNA, one strand shown
Matrix: in vitro
Concentration: not given
Notes: 8-mer, flanks averaged, mean of 2 arrays, mostly near background
Baseline: not given
Direction: higher = stronger binding
Construct (chain): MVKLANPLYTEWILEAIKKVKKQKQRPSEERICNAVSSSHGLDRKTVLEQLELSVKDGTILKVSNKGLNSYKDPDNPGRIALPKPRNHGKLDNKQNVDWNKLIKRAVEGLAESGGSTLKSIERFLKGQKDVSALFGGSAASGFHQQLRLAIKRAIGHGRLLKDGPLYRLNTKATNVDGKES
Oligonucleotide | E-score
TAAATTGA | -0.148
ATTCTACC | -0.0555
GGCTATAC | 0.165
AAGGAAGA | -0.113
ATTGCAGG | -0.106
GTGAGTGA | -0.0876
AACGGAAC | 0.191
AACACCAT | -0.0421
ATGTTCTC | -0.00881
CGGGCACA | 0.0743
ATAATGAT | -0.0524
CAGGGGGC | -0.0317
AGAAACCC | -0.0141
ACCGACAA | 0.0128
ACACGCAT | 0.143
AGCCCATG | -0.141
CGGGTACG | 0.232
ACTGAATC | -0.0718
AGTAAGTG | -0.0649
CTTCTCAA | -0.186
GCGCGGAC | 0.344
GCTCTGCA | -0.0583
AACCGAGG | -0.0993
AGATACGG | 0.141
GTCTTCAC | 0.00314

Series 3
Target: Sal-like protein 4, full length isoform B (SALL4, Homo sapiens, UniProt Q9UJQ4-2, residues 1-616)
Method: universal PBM
Form: double-stranded DNA, one strand shown
Matrix: in vitro
Concentration: not given
Notes: 8-mer, flanks averaged, mean of replicates
Direction: higher = stronger binding
Oligonucleotide | E-score
GCAGCAAA | -0.0132
AAATGGGG | -0.0959
CAGGTAGC | -0.208
AAAGCAGC | -0.151
ATCCTTCG | -0.0595
AAATAGGT | 0.186
AGGACCGG | -0.378
GCCCTCAC | -0.162
CGCACAAA | 0.0144
CCCAAGAC | -0.17
CATATCGC | 0.151
CTGAGATA | 0.113
GCGGTAAA | 0.00357
AGAAGCAT | 0.121
CCAGCTAG | -0.187
AGGTGGGA | -0.124
CCCTGCTC | -0.159
CAGCCTTA | -0.0571
ACCATCAA | 0.132
CAGGAACC | -0.149
CTCACAAC | -0.00217
TAGATCCA | 0.137
GATCCGAA | -0.132
AGATTTGA | 0.0667
AAGGGCTC | -0.17

Series 4
Target: RNA binding protein fox-1 homolog 2, RRM domain, GST-SBP tag (RBFOX2, Homo sapiens, UniProt O43251-10, residues 100-194)
Method: RNA Bind-n-Seq
Form: RNA
Matrix: in vitro
Concentration: 365 nM
Notes: natural RNA segment, single round, ends assumed
Baseline: no-protein control
Direction: higher = stronger binding
All sequences stand within: GGGAGUUCUACAGUCCGACGAUC … UGGAAUUCUCGGGUGCCAA
Construct (chain): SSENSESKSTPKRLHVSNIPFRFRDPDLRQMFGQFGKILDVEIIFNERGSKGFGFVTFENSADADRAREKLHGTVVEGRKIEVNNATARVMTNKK
Oligonucleotide | RBNS enrichment (R)
GCUCCCUGCCCUCCGUGUGUGUCUGUUAUCUGGGGGAGAGGAGUGUGGAAGGGUUGGGGGAAGAGCUCCAGCCUGUCUGCUCCCCAGCUCUGUAGUGGCAGACCAGCGUC | 1.25
CGAGUGAACCGUGGAGCAGGCAGGAGCAUCCUUUGUCUCACCAAUUCCAGGAUUUAGGCCUUAUCAUCCCGGCCAGUCUCAGAUGACCUAGCUGGCCCCAGGCUGGGGUC | 0.306
UUCCUCCAUGUGUGUCCUGUGAGGAUUUUGCUCAUGAGUCAUGCAGGCAGUGACAGUGAACUGUAAAUACCACAUGUGAGUUUACCUGGAUCUGUGCAUUUUGUGCCUUA | 0.391
CUGAAUUCCUUGCAGAUGGUAGCAUUGUCUACCAGUUGGUUCAGUCUCCAUAGGACUUUCAUAUCAUCUGCUACAUUGAAAGAAUAAGAUAUACUGAUCCUAAAACCAAG | 0.392
CUCCUGCUUUGGAUCUAACAGCUGAGUCCAGACAGGCUCCCCACAGGUCACCCUUGCACGGGUUUGGCCAACACCAUGAAGGAGUUGCCUUGGAGUUUCACCUGCAUAGC | 0.973
CAGCAUGCUAAUCAGUGUCAGUGAAUCCACAGUCUUUACUUCCUGCCUCAUAAAGGGCCAGGUCUCCCCAGUACCAAGUCCUUUCCUCAUGAAGUUGUGUUGCCUCAGGC | 1.77
GGAGAGCUUUGUGCCUAUACCCAGUGUGUGGCUUUCCUCCAACCCCUUCCCAGACUUGUGAUCCAUUCCCUGCAGCAAAGGAACACUGGAAGAAAGAUGGAGCUCCUCCA | 0.35
AGAUUUAAAAGGAGCACAUGAUUUAGUGGGUGGGCCAUGAAACUAGAGAUGGGAUUUGGGGGUGAAUUUGUCAAUAUCUGGAUUUUAAUCCAGACAUCUCUGCUAACAAG | 1.58
AAAUAGCGUUCUGCUUGGGAUGGUGGCUGGUUCUAUGCCUACGCUCUCCGGUGACACCUAUAAGCCUCCAUUGAGCUCAGAGAGGAUGCCUUAGGCUGGAUCCUGCUCCU | 0.538
CUCUUGAACCCAGGAGGCAAAAGUUGCAAUGAGCUGAGAUCGUGCCAUUUGCACUCCAGCCUGGGCAACAAGAGCGAAAUUCCAUCUCAAAAAAAAAAGGUGGGUAAAGG | 0.678
AGAGAGUUUGCCUUAUACAAUUUCCUGUUACAAAGCUCUCCCUCUCAUGCAAAGUAGGGAACACCUUUUGAGCAUCUUUGAAUUUGACAAAUGGUGCUGUUGCAAACACU | 0.23
ACCCCCCCCACUCUGCAGAGGGAAGCGGGGACAAUGCCGGGGUUUCAGGCAGGAGACACGAGGAGGGCCUGCCCGGAAGUCACAUCGGCAGCAGCUGUCUAAAGGGCUUG | 0.59

Series 5
Target: CCNB2, cyclin fold, Cln2 fusion (human)
Method: yeast growth competition, sequencing
Matrix: yeast
Notes: weak parent motif
Baseline: not given
Direction: higher = stronger binding
Parent: SCAPER docking peptide (human); SNARRSLNFGGST
Substitution | normalised enrichment score
SNARRSLNEGGST [F9E] | -0.29
SNARRMLNFGGST [S6M] | 0.378
FNARRSLNFGGST [S1F] | 0.852
SMARRSLNFGGST [N2M] | -0.253
SNARRSLVFGGST [N8V] | 0.0866
SNARRSLSFGGST [N8S] | 0.367
SNARRSLNFGGQT [S12Q] | -0.0153
SNARRTLNFGGST [S6T] | 0.183
SSARRSLNFGGST [N2S] | 0.0701
SNARRSLNFGKST [G11K] | 0.734
SNARRSLNNGGST [F9N] | -0.0601
SNTRRSLNFGGST [A3T] | 0.07
SNARRSLNFGTST [G11T] | 0.367
SNADRSLNFGGST [R4D] | -0.112
SNARCSLNFGGST [R5C] | -0.0475
SNARRYLNFGGST [S6Y] | 0.277
SNAFRSLNFGGST [R4F] | -0.338
SNARRSLLFGGST [N8L] | 0.139
SNARRSLNMGGST [F9M] | 0.627
SNARRSLKFGGST [N8K] | 0.607
SNARRSSNFGGST [L7S] | 0.251
WNARRSLNFGGST [S1W] | 0.498

Series 6
Target: RING finger protein unkempt homolog, zinc fingers 1-6, GST-SBP tag (UNK, Homo sapiens, UniProt Q9C0B0, residues 30-357)
UniProt Q9C0B0, sequence (30-357, looked up): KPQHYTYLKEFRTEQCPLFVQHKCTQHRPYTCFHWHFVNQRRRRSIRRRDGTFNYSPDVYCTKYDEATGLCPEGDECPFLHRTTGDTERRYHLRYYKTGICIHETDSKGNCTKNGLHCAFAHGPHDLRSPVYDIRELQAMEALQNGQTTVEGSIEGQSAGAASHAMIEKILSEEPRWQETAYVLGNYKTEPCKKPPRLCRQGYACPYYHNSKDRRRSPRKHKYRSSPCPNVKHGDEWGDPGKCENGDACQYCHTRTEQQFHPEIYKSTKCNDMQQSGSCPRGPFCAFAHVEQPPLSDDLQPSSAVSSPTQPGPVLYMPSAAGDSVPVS
Method: RNA Bind-n-Seq
Form: RNA
Matrix: in vitro
Concentration: not given
Notes: RNA with constant flanks, human-mouse chimeric sites, ends assumed
Baseline: input RNA pool
Direction: higher = stronger binding
All sequences stand within: GGGAGUUCUACAGUCCGACGAUC … CAACAGAGGAUUGAGCAUCA
Oligonucleotide | bound/input enrichment
GGGACUGAUUCAUUCCAAGGACAGGCCACCCCAUUUGAUGCCUGGACUGAUGACAGUAUGGAAGGGCCUAGUCAAAAUGUUGAAGCUGAGUCAAUUCAAGAUAAUGCGAGUAUGGAAGAG | 0.447 ratio
UGUGCAUAUGAUGCUUGAGAUGGUUUUUGCAAAAGCAGACAUCGCUGCAAGGUAAUCACAAUAGAUAAAAGUGGUAUUUUAAACCUUUGAAAGGAAUGGAUGUAACUGUACCUUGGUACA | 0.408 ratio
GAUCAUGAACCACCAUCCAGAAAUGAAAUGAGAUUACCCAGACGAGCCAAAACAGCUGCGCUACAGAAAAGUAAACUUAACCUUGCACCAAUUUCUCAUGAAGAUACAAGUUAAGAGAGC | 0.44 ratio
UAAAUUAGCCAGCACCAUUUCUGUUUCUCCCUGGGCUGCGGAAAGCCAGAAGAUUUUAUCUAGCUUAUACAAGGCUGCUGGUGUUCCCUCCCUCCCGCCACGAGGGUGUUUUUGGCUGCA | 0.791 ratio
UAAGUCCUGUGCCAGCACUUCGCUCAUUAUAUUUUAAAUUCUGGACCAAUAGUGUUUGUUUCCUGAUUAUUGUAUCCAAUACUUUGCCUAGUAUGUAACUCAUGCUUACUGAUAAUAAAA | 2.02 ratio
GAUAAGAAAAGCUUGUUGGAGACCCGCUUGCAUGUCACUGGUAGAGACCUGAGGUGUAAAAUAGCUGAAACCUUUGGAUUUCAAGAAAAUUACAUCAAGAUCGUAAUAAAUAAGAAACAG | 0.376 ratio
UCUUUAAAUGCACUACAACCUUUUCUGACAGUGCUUUCCCUCCCAUAGAUCCACGUUCAAGCUCAAAGGCCAAAACUUUUGCACGGAGCUCAAACAUCUGAUGAAGAAAGAUUUCUGAGA | 0.491 ratio
AUGGAGAAGGAUUCUCUGCCCCGCUUUGUGCGCUCUGAAUUUUAUAAGGAGUUAAUCAAGUAGUCAUCUGGUCAGGCUAUGAAAUCAUGCCCUGUGAGUUGAGUUACAUCCUUUGUAGCA | 0.269 ratio

For quick reference, copied from above (series 5):
Substitution | normalised enrichment score
SNAFRSLNFGGST [R4F] | -0.338
WNARRSLNFGGST [S1W] | 0.498
SMARRSLNFGGST [N2M] | -0.253
SNARRTLNFGGST [S6T] | 0.183
SSARRSLNFGGST [N2S] | 0.0701
SNARRSLNFGGQT [S12Q] | -0.0153
SNARCSLNFGGST [R5C] | -0.0475
SNARRYLNFGGST [S6Y] | 0.277
SNARRSLSFGGST [N8S] | 0.367
SNARRSLNFGKST [G11K] | 0.734
SNARRSLNEGGST [F9E] | -0.29
SNARRSLNMGGST [F9M] | 0.627
SNARRSLNNGGST [F9N] | -0.0601
SNARRSLVFGGST [N8V] | 0.0866
SNTRRSLNFGGST [A3T] | 0.07
SNADRSLNFGGST [R4D] | -0.112
